Measured values pooled from the literature.
Every numbered part comes from another study and shows a few of its results, in no order.

Series 1
Target: RING finger protein unkempt homolog, zinc fingers 1-6, GST-SBP tag (UNK, Homo sapiens, UniProt Q9C0B0, residues 30-357)
Method: RNA Bind-n-Seq
Form: RNA
Matrix: in vitro
Concentration: not given
Notes: RNA with constant flanks, human and mouse sites, ends assumed
Relative to: input RNA pool
Direction: higher = stronger binding
Constant ends, left off below: GGGAGUUCUACAGUCCGACGAUC … CAACAGAGGAUUGAGCAUCA
Target sequence (chain): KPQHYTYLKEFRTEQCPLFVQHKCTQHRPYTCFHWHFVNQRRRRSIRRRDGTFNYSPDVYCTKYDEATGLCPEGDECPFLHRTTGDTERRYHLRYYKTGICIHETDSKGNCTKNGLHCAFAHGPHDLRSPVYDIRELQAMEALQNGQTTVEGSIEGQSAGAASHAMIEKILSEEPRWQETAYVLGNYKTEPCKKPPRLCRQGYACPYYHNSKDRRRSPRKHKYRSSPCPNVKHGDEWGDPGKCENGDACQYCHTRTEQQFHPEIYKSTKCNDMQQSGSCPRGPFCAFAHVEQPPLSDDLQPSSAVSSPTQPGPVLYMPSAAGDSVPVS
| Oligonucleotide | bound/input enrichment [ratio] |
| --- | --- |
| AAACUCUCUAGCAAAACGACUGCUAAGUUAUCCACUAGUGCUAAAAGAAUUCAGAAGGAGCUAGCAGAGAUAACCCUUGAUCCUCCUCCUAACUGCAGUGCUGGGCCUAAAGGAGAUAAC | 0.396 |
| UACUGCUGGUAUUGUACCAGGAACAUUUUCUUUUAUUGUUACUUGCUUUUUAAACUUUGUUUAGCCACUUAAAGAAAACCUGCUCAUGGCACAACUUGCCUCAAAUCCAUUCCAAGUUGU | 1.32 |
| AAGUUGCAUCUCAGCGGCAGCCCCAGCGCCCAGCAGUAUGCCGCAGCCAGUGCCGUGCUUUUGGACAAUCUCCCGGGAGUCCGUUGGCUCGUGCUUCCACAGGAACUCAAGGUGGAACUG | 0.0951 |
| UGGCAGAUAUUCAAAACGUCAGCAACCAAAGGCACCGGCCUUGAUGAGGCAAUGGAAUGGUUAGUUGAAACAUUAAAAAGCAGACAGUAAUUCAGUCCAUUCUUCUCCCCUGAAAUGAAG | 0.232 |
| UACAAGGAGAUUAUCAUUGAAGCCACCAAGCACCGAAACUCGGAGGAGAUGUGGCGCCGCAUGAACCUGAUGACUCCUGAGGCCCUGGGCAAGCUCAAGGAGGAGAUGAAAAGUUGCGGG | 0.316 |
| CGCUGCUGGACAUAUGAGACAUCGCUGCUGGUAGAAGAGGCCAUUAGUGAGGAGCUUCCCUAUAGUGAAUACUUCGAGUACUUUGCCCCAGACUUCACACUUCAUCCAGAUGUCAGCACC | 0.558 |
| UGUAUUGUGUAAUGCAUUGUUCUCAGUUUCCCUGCCAACAUUGAAAAAUAAAAACAGCAGCUUUUCUCCUUUACCACCACCUCUACCCCUUUCCAUUUUGGAUUCUCGGCUGAGUUCUCA | 0.33 |
| AUGUAUAAGAAUUUUGUUUAUCUUUUAAGAGUAGUAAAGUACUUUGAGUGUUUGGGGGUUCAACACACACAUGCAAUUUUGCUUAACAAAAGUAUUUUAUAAUACAGUUUCAUACAGAAU | 0.34 |

Series 2
Target: 5-hydroxytryptamine receptor 1B (HTR1B, Homo sapiens, UniProt P28222)
Sequence of UniProt P28222 (whole entry, looked up): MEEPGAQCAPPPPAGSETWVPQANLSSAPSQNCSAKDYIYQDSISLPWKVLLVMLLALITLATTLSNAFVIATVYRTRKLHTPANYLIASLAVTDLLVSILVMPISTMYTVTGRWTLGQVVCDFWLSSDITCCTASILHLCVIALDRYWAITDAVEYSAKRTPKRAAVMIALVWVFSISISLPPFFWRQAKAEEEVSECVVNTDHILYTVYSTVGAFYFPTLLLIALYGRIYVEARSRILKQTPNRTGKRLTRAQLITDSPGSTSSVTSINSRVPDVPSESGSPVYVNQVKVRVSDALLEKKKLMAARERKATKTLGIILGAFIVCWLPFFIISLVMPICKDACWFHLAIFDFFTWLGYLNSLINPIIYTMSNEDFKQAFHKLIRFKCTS
Observed: ligand displacement
Method: radioligand
Concentration: 10 µM
| SMILES | inhibition [%] |
| --- | --- |
| COc1cc(-c2cn(C3CCc4c(F)cccc4N(CC(F)(F)F)C3=O)nn2)ccc1-n1cnc(C)c1 (centres unmarked) | 35 |
| CCOc1cc(N2C3COCC2CN(C(=O)[C@H]2C[C@H](O)CN2c2ccc(Cl)cc2)C3)ccc1Cl | -2.86 |
| CC(C)(O)c1cncc(-c2nc3ccc(F)cc3n2C2CC2)c1 | 16.8 |
| Nc1cnc(N2CCc3cc(S(=O)(=O)Nc4c(F)cc(Cl)cc4F)cc(N4CCCC4=O)c32)nc1 | -3.82 |
| CC(=O)N1CCC(c2ccc(C(=O)NC3=NCCN3)cc2C(F)(F)F)CC1 | 37.8 |
| CSc1cccnc1N1CCN(Cc2nc3ccccc3[nH]2)CC1 | 1.5 |
| Cc1nc(C2CCN(C(=O)c3ccc(OC(F)(F)F)cc3N)CC2)c2ncc(N3CCN(C)CC3)cc2n1 | 14.6 |
| CNC(=O)Nc1ccc2c(c1)CC[C@]21OC(=O)N(CC(=O)N(Cc2ccc(F)cc2)[C@@H](C)C(F)(F)F)C1=O | 9.82 |
| CNC(=O)c1ccc(Nc2ncc(C(F)(F)F)c(NCc3nccnc3N(C)S(C)(=O)=O)n2)cc1 | 12.5 |
| CS(=O)(=O)NCC[C@H](NC(=O)c1cncc2c1cnn2-c1ccc(F)cc1)c1ccnc(S(C)(=O)=O)c1 | 47.7 |
| COc1cc(-c2cn(C3CCc4ccccc4N(CC(F)(F)F)C3=O)nn2)ccc1-n1ccc(C)n1 (centres unmarked) | 30.8 |
| COc1cccc(NC(=O)c2nc3scc(CN(C)Cc4ccccc4)c3c(=O)[nH]2)c1 | -2.26 |
| C[C@@H](NC(=O)Nc1cc2[nH]ncc2c(CO)n1)c1ccccc1 | 4.23 |
| CN(C)C(=O)Cn1cc(-c2nc([C@@](C)(c3ccc(-c4cnc(N)nc4)cc3)C3CC3)no2)cn1 | -3.77 |
| Cc1cc(Nc2nccc(C)n2)cc(-c2cnc([C@@]3(O)CC[C@H](C(=O)O)C(C)(C)C3)s2)c1 | 11.6 |
| Cc1c(NC(=O)c2cc(C(N)=O)nc3cc(F)ccc23)c(C(F)(F)F)nn1Cc1ccc(C#N)cc1 | 2.6 |
| Cn1cncc1[C@](O)(COc1ccc(C#N)cc1-c1ccc(OC(F)(F)F)cc1)c1ccc(C#N)cc1 | -4.28 |
| CS(=O)(=O)c1cc(C2(NC(=O)c3cncc4c3cnn4-c3ccc(F)cc3)CC2)ccn1 | 13.5 |

Series 3
Target: Mitogen-activated protein kinase kinase kinase 2 (MAP3K2, Homo sapiens, UniProt Q9Y2U5)
Observed: enzyme activity
Mode: inhibitor
Concentration: 0.5 µM
Relative to: control
Construct (Q9Y2U5 1-619): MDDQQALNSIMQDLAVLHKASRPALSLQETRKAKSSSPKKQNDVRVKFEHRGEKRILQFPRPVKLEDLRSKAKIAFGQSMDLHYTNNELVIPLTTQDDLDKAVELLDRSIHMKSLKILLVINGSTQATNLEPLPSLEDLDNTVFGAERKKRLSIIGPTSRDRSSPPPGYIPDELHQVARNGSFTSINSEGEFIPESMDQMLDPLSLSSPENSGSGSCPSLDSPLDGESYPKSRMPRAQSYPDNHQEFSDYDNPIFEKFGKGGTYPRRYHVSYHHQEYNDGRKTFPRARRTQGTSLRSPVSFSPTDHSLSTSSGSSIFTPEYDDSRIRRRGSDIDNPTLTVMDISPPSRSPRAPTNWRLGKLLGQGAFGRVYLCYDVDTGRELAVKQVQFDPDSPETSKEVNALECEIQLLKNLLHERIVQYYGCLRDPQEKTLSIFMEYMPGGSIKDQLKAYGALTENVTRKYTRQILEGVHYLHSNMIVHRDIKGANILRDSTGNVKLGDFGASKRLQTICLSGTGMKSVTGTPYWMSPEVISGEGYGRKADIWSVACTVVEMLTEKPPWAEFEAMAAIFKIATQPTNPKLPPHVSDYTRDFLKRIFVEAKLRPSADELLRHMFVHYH
| Compound | remaining activity [%] |
| --- | --- |
| Nc1ncnc2n[nH]c(Nc3ccc(F)cc3)c12 | 95.6 |
| COc1ccc(C(=O)Nc2sc3c(c2C(N)=O)CCCC3)cc1OC | 105 |
| OCC(O)CCON=C1C(c2c(O)[nH]c3ccccc23)=Nc2ccccc21 (centres unmarked) | 60.6 |
| COc1ccc(OC)c2c(=S)c3ccccc3[nH]c12 | 101 |
| O=c1c2ccccc2[nH]c(=S)n1CCN1CCC(=C(c2ccc(F)cc2)c2ccc(F)cc2)CC1 | 99.6 |
| COc1cc2nccc(Oc3ccc(NC(=S)NC(=O)c4ccccc4C)cc3)c2cc1OC | 83.1 |
| O=C1NC(=O)C(c2cn(CCCO)c3ncccc23)=C1c1cnccn1 | 96.9 |
| COc1cc2ncnc(Nc3ccc(Oc4ccccc4)cc3)c2cc1OC | 102 |
| C#Cc1cccc(Nc2ncnc3cc(OCCOC)c(OCCOC)cc23)c1 | 117 |
| NCCNc1ncc(C(N)=O)c(Nc2cccc(C(F)(F)F)c2)n1 | 87 |
| O=S(=O)(c1cccc2cnccc12)N1CCCNCC1 | 77.8 |
| N#CC(C#N)=C(N)/C(C#N)=C/c1ccc(O)cc1 | 102 |
| Oc1ccc(-c2nc(-c3ccncc3)c(-c3ccc(F)cc3)[nH]2)cc1 | 95 |
| O=C1NC(=O)C(c2cn(CCCn3ccnc3)c3ccccc23)=C1Nc1ccccc1 | 83.3 |
| O=C(O)c1ccc2c3c1cccc3c(=O)n1c3ccccc3nc21 | 90.7 |
| O=C(CCCc1ccc(-c2ccccc2F)cc1)Nc1ccc(O)cc1 | 89.1 |

Series 4
Target: Interferon regulatory factor 7, full length, phosphomimetic (IRF7, Homo sapiens, UniProt Q92985, residues 1-503, S471D/S472D/S475D/S476D/S477D/S483D/S484D/S487D)
Method: protein-binding microarray
Form: double-stranded DNA, one strand shown
Matrix: in vitro
Concentration: 2200 nM top
Notes: 60-bp whole probe
With: salmon DNA 0.4 mg/ml
Relative to: random background probes
Direction: higher = stronger binding
Constant ends, left off below: GCCTAGCAC … GTCTTGATTCGCTTGACGCTGCTG
Construct (chain): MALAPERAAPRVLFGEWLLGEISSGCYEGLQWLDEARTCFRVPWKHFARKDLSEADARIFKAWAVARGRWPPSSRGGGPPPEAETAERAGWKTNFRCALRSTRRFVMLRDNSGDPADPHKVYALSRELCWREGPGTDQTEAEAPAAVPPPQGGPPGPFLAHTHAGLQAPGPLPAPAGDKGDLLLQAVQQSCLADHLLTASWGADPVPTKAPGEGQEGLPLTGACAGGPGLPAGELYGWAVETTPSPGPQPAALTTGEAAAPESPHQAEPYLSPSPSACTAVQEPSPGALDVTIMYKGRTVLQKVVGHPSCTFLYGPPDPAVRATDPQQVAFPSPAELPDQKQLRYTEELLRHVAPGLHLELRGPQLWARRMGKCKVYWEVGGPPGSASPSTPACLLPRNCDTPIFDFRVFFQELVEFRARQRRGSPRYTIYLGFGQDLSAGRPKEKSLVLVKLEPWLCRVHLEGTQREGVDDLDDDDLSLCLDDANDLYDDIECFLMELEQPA
| Oligonucleotide | fitted relative affinity [z-score] |
| --- | --- |
| TTAGAACTGAGCTTCGATTAGTGCTAG | -0.514 |
| TTATGACTGGACACTGGGTTAGTGCTA | -0.198 |
| TCATCTTCAGGTTCTCCCACTGTGCTA | 1.92 |
| TTAGATTCAAGTTTCGATTAGTGCTAG | 5.4 |
| TTAGGTCTCGGACGGGGTTAGTGCTAG | -0.24 |
| ACTCAGTAACATTATTGTAGGTGCTAG | 0.88 |
| CTCTCCATGTGTTTAAAGACGTGCTAG | 1.13 |
| TTAGATTTCAGTTCAGATTAGTGCTAG | 1.6 |

Excerpt of the above (series 2):
| SMILES | inhibition [%] |
| --- | --- |
| COc1cc(-c2cn(C3CCc4c(F)cccc4N(CC(F)(F)F)C3=O)nn2)ccc1-n1cnc(C)c1 (centres unmarked) | 35 |
| CS(=O)(=O)c1cc(C2(NC(=O)c3cncc4c3cnn4-c3ccc(F)cc3)CC2)ccn1 | 13.5 |
| CNC(=O)Nc1ccc2c(c1)CC[C@]21OC(=O)N(CC(=O)N(Cc2ccc(F)cc2)[C@@H](C)C(F)(F)F)C1=O | 9.82 |
